# Experimental data collected from several papers.
# Numbered parts are unrelated; each lists some results of a single study.

# Series 1
# Target: Sal-like protein 4, full length isoform A (SALL4, Homo sapiens, UniProt Q9UJQ4, residues 1-1053)
# Chain of UniProt Q9UJQ4 (whole entry, looked up): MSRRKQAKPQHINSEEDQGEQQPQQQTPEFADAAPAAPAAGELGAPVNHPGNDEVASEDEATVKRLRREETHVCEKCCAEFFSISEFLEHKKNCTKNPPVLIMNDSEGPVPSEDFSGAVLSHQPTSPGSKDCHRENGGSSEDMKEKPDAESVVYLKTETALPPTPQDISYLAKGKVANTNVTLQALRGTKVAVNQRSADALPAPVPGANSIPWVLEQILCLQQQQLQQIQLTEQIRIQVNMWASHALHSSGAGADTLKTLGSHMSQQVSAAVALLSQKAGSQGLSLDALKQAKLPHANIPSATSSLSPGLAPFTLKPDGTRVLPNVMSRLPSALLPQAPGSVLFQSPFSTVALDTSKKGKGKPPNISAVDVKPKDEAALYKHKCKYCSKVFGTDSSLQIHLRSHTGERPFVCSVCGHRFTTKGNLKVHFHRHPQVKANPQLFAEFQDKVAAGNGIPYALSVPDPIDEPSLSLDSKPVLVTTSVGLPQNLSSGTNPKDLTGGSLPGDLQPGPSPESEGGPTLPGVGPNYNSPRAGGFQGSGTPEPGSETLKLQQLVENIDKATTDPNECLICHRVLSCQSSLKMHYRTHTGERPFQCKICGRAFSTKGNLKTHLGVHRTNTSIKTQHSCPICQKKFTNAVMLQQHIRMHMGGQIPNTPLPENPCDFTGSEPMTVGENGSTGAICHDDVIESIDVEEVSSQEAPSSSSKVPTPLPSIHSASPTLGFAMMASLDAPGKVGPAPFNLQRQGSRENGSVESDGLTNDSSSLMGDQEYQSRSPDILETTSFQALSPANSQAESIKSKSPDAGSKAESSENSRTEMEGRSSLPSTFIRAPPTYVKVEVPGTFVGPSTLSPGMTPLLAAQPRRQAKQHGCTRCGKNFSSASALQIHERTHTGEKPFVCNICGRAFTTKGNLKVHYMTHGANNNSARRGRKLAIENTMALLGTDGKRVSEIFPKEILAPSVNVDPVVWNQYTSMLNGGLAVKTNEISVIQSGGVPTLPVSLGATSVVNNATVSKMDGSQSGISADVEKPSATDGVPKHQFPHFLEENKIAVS
# Method: universal PBM
# Form: double-stranded DNA, one strand shown
# Sample: in vitro
# Concentration: 600 nM
# Notes: 8-mer, flanks averaged, mean of replicates
# Reading: higher = stronger binding
Oligonucleotide,E-score
ATGATGTG,0.113
CTCGTGAA,0.0888
ATTTCATG,0.134
CACATAAA,0.312
CAAGGCTG,-0.13

# Series 2
# Target: RNA binding protein fox-1 homolog 2, RRM domain, GST-SBP tag (RBFOX2, Homo sapiens, UniProt O43251-10, residues 100-194)
# Method: RNA Bind-n-Seq
# Form: RNA
# Sample: in vitro
# Concentration: 365 nM
# Notes: natural RNA segment, single round, ends assumed
# Reference: no-protein control
# Reading: higher = stronger binding
Oligonucleotide,RBNS enrichment (R)
GGGAGUUCUACAGUCCGACGAUCGUUACUUGCGGUCUUUUUAAAUUGAGGAGCCCCACUUCCACUGUCCACCCCUUGUCUUUGUGUGUCAGGUGAUCAUUGAAAUCGUAUCUUGAGCUUGAAUUCACUUCUCUUGGAAUUCUCGGGUGCCAA,0.812
GGGAGUUCUACAGUCCGACGAUCUAGGUUUUCUAGAGUUUAAUUCUUUAUCAGCCAGGCAAUGACUCUGAACUCUGAAAUGCUAUAUUAUUUAGGACCCAAAAGAAAAUGGAUCAAUGGCCUUAUCUGUUACAUGGAAUUCUCGGGUGCCAA,0.755
GGGAGUUCUACAGUCCGACGAUCUGGCACUUUGUUUUGACCUCUGGUAUAGAACUCUGACUUUUAUAGUUUUAAAAUGAUCAAUCUUUGUAUGAAAGUCAGUUUUCUUUCUUUAGGUAUCAGAAGAUUUUGCCUGGAAUUCUCGGGUGCCAA,0.739
GGGAGUUCUACAGUCCGACGAUCUGGCCUGGCCUCACUGCUUUCAAGGACACAGAUGUCUGCUACCCCUCUUGAACUUGGGUGGGGAACCCCACCCAAAAGCCCCCUUGUUAGCUCUUUGGCAAUUCUCCUUCUGGAAUUCUCGGGUGCCAA,0.502

# Series 3
# Target: RING finger protein unkempt homolog, zinc fingers 1-6, GST-SBP tag (UNK, Homo sapiens, UniProt Q9C0B0, residues 30-357)
# Method: RNA Bind-n-Seq
# Form: RNA
# Sample: in vitro
# Concentration: not given
# Notes: RNA with constant flanks, human and mouse sites, ends assumed
# Reference: input RNA pool
# Reading: higher = stronger binding
# Residues (chain): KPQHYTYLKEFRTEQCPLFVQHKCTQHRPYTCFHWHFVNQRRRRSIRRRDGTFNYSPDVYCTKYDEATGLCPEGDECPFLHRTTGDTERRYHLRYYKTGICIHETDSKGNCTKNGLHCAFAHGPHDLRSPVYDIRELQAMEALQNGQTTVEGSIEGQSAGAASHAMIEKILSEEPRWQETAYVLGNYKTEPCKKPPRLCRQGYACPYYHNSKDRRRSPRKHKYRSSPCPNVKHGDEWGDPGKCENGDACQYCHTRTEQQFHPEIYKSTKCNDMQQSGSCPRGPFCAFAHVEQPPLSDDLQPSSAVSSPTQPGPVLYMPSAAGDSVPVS
Oligonucleotide,bound/input enrichment
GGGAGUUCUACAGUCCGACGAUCCAGAUCCGAUGUCUCUGCCAGCUUGGGGCUGAAGUUACCGUGGUACCCUGGGACCACGAGUUAGACAGUCAGAAAUAUGACGGUCUCUUCCUAAGUAAUGGACCCGGUGACCCUGCCUCUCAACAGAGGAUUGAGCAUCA,0.191 ratio
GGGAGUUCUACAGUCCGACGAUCGCGGGUGCUGUGCGCUUCUAUUCCAAGGACAGUGAAGGAAGCUGGUUCCGUUCCCUCUUUGUCCACAAGGUGGAUCCUCGGAAGGACGCCCACUCCACUCUGCUGUCCAAGAAGGAGACUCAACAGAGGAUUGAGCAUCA,0.0874 ratio
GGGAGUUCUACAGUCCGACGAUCACUGUAGAACAGCUUUAUGAAACAGCUUGCUUCCUACAGGUAGAAGAUGUGUUACAACGUUGUCGAGAAUAUUUAAUUAAAAAAAUAAAUGCAGAGAAUUGUGUACGAUUGUUGAGUUUUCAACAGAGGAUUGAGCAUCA,0.653 ratio
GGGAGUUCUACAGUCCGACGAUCAGAGAACAAAUCUCAGUGAAAUCAAGUGUUCAGGAAAUACCACGUACUAACGGGUUGGUAUCCGUUGAUGAAGAAUCCUAUGGUGCACUUUAUCAAGCUACUGUAGAAACAACCAGAAGUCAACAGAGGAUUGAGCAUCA,0.254 ratio
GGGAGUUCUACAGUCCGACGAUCCCCCAUCUCUUCCCUGUGGGUCAUCAGAGUUAGGUACCUAGCUCUGACAUGGCUCUUUGCCUCUAUCUAGGUGAGGGUCCCGAUGUCCUGGUGUACAGCUUGGACUUUGGUGGGCAUCUGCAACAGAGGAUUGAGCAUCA,0.136 ratio
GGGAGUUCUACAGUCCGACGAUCAUUGGAGAACAUCAAUUAACAGGCCAUAAAGUGGCAGUUAAAAUCUUAAAUAGACAGAAGAUUCGCAGUUUAGAUGUUGUUGGAAAAAUAAAACGAGAAAUUCAAAAUCUAAAACUCUUUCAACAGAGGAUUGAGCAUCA,0.253 ratio
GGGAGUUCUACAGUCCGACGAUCGAUGCUAAGAUGCACCCCACUCCAGCAUCACAUCCAAAGAAACAAGGUGUGGGCGUGUUUCCCUCUCAGGACCCUGCUCAGUCCAGAAUGCCUCCUUGGAUUUACAAUGAGAGUUUGGUUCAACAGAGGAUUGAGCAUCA,0.187 ratio

# Single results of other studies
Molecule,target,assay,system,conditions,scale,measurement,result
"PhoQ, residues 284 288 289 292 302 303 SSTMSV","PhoP, residues 12 14 15 18 19 LHSVW (Escherichia coli, UniProt P23836)","Sort-seq, refers to: YFP reporter",E. coli,"PhoQ-PhoP variant library, added: 10 µM Mg2+","reference: high Mg2+ state, higher = stronger signaling",fold induction,9.29

# For quick reference, copied from above (series 2):
Oligonucleotide,RBNS enrichment (R)
GGGAGUUCUACAGUCCGACGAUCUAGGUUUUCUAGAGUUUAAUUCUUUAUCAGCCAGGCAAUGACUCUGAACUCUGAAAUGCUAUAUUAUUUAGGACCCAAAAGAAAAUGGAUCAAUGGCCUUAUCUGUUACAUGGAAUUCUCGGGUGCCAA,0.755
GGGAGUUCUACAGUCCGACGAUCUGGCACUUUGUUUUGACCUCUGGUAUAGAACUCUGACUUUUAUAGUUUUAAAAUGAUCAAUCUUUGUAUGAAAGUCAGUUUUCUUUCUUUAGGUAUCAGAAGAUUUUGCCUGGAAUUCUCGGGUGCCAA,0.739
